Measured values gathered from unrelated publications.
Each line is one published result; not all experiments were run side by side. Several values in a cell are separate wells, animals, samples, runs or records. Numbers after ± are the reported error.
uncharacterized protein: uncharacterized protein (Spodoptera exigua, UniProt F1CEY0)
ALB: Albumin (ALB, Homo sapiens, UniProt P02768)
SNF1: Carbon catabolite-derepressing protein kinase (SNF1, Candida albicans, UniProt P52497)
T1: ssDNA, aptamer; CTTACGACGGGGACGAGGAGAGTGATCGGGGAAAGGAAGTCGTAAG

| Compound | target | test | system | setting | how to read | endpoint | result |
| --- | --- | --- | --- | --- | --- | --- | --- |
| Nc1ncnc2c1ncn2[C@@H]1O[C@H](COP(=O)(O)CP(=O)(O)OP(=O)(O)O)[C@@H](O)[C@H]1O | P2X purinoceptor 1 (P2RX1, Homo sapiens, UniProt P51575, K215A) | calcium influx | – | 3.16 nM | reference: ionomycin response | calcium influx | 0% |
| CC(=O)N[C@H](C(=O)N1C[C@H](O)C[C@H]1C(=O)NCc1ccc(-c2scnc2C)cc1)C(C)(C)SCCCCCCNC(=O)C[C@@H]1N=C(c2ccc(Cl)cc2)c2c(sc(C)c2C)-n2c(C)nnc21 | BRD4/VHL, BD1; with elongins B/C (Homo sapiens, UniProt O60885+P40337) | ternary complex binding, ITC | – | 25 °C, with: VHL-ElonginB-ElonginC titrated into compound:PROTAC:Brd4^BD1 complex | – | −TΔS | -6.57 ± 0.04 kcal/mol |
| CC(=O)c1ccccc1 | uncharacterized protein | binding, competitor, fluorescence displacement | – | 20 µM, pH 7.4, with: 1-NPN 20 µM | reference: 1-NPN alone | relative fluorescence | 69.7% |
| C=CC(=O)N1CCC(COCC(=O)N2CCN(c3nc(-c4cnc(N)nc4C(F)F)nc(N4CCOC[C@@H]4C)n3)CC2)CC1 | MAP3K15 (Homo sapiens, UniProt Q6ZN16) | KINOMEscan | – | 1 µM | – | remaining binding | 97% |
| O=S(=O)(O)C1CCNCC1 | SLC6A6 (Homo sapiens, UniProt P31641, G62A) | binding, microscale thermophoresis | – | 3.91 µM, room temperature, with: 50 nM labelled protein | higher = more binding | normalised MST signal | 0.00696 |
| C#Cc1c(F)ccc2cc(O)cc(-c3ncc4c(N5CC6CCC(C5)N6)nc(OC[C@@]56CCCN5C[C@H](F)C6)nc4c3F)c12 | GTPase KRas, GDP-bound (KRAS, Homo sapiens, UniProt P01116, G12C) | binding | – | – | – | dissociation rate constant | 0.000473 ± 0.00055 s⁻¹ |
| Nc1ncnc2c1ncn2[C@@H]1O[C@H](COP(=O)(O)OP(=O)(O)OP(=O)(O)O)[C@@H](O)[C@H]1O | P2X purinoceptor 7 (P2rx7, Rattus norvegicus, UniProt Q64663, I214A/Q143A/R125A) | ion current, agonist, two-electrode voltage clamp | Xenopus oocytes | 900 µM | – | normalized current | 0.878 and 0.862 and 0.885 |
| Nc1nc2c(ncn2[C@@H]2O[C@H](COP(=O)(O)O)[C@@H](O)[C@H]2O)c(=O)[nH]1 | GUK1 (Homo sapiens, UniProt Q16774, E72A) | enzyme activity, NADH-coupled | – | 125 µM | – | reaction rate | -0.404 s⁻¹ and 0.816 s⁻¹ and 0.0426 s⁻¹ |
| N[C@H](CNC(=O)c1ccc(-c2ccccc2Br)s1)C(=O)O | Glutamate receptor ionotropic, NMDA 1, with GluN2C (Grin1, Rattus norvegicus, UniProt P35439, V689I) | – | rat | with: glutamate 300 µM | – | Hill slope | 1.7 |
| NC/C(=C\F)COc1cccc(Cn2c(=S)[nH]c(=O)c3[nH]cnc32)c1 | rat L-type calcium channel | radioligand binding | – | 10 µM, dihydropyridine site | – | inhibition | < 50% |
| OC[C@H]1O[C@@H](Oc2cc3c(O)cc(O)cc3[o+]c2-c2cc(O)c(O)c(O)c2)[C@H](O)[C@@H](O)[C@@H]1O | ALB | van't Hoff analysis | – | concentration not given | – | binding entropy change | -0.01 kJ/(mol·K) |
| O=c1cc(CO)occ1[O-].[Cl-].[W+4].c1cc[cH-]c1.c1cc[cH-]c1 | ALB | fluorescence quenching | – | 303 K | – | Stern-Volmer quenching constant | 15700 L/mol |
| c1coc(-c2n[nH]cc2-c2ccnc3ccccc23)c1 | SNF1 | kinase binding, MIB/MS competition | Candida albicans lysate | 1 µM | reference: DMSO, negative = stronger binding | log2 fold change | -0.17 |
| Cc1nc(CSc2nc(SCc3ccc(C(C)C)cc3)nc(=O)[nH]2)cs1 | TOP2A (Homo sapiens, UniProt P11388) | decatenation | – | 31.25 µM | – | mean decatenated DNA | 19% |
| CC1=CCCC(C)(C)C1/C=C/C(C)O (stereo not shown) | uncharacterized protein | binding, 1-NPN competitive displacement | – | protein 2.0 µM, with: 1-NPN 20 µM | reference: 1-NPN without compound, lower = stronger binding | relative fluorescence | 74% |
| COc1cnc2c(cc(C(=O)NCc3ccc(Cl)cc3)c(=O)n2CC(=O)N2CC(C)(F)C2)n1 | DNA polymerase catalytic subunit (Human cytomegalovirus, UniProt P08546) | enzyme activity, inhibitor | – | – | – | Hill slope | 0.8 |

| Compound | target | test | system | setting | how to read | endpoint | result |
| --- | --- | --- | --- | --- | --- | --- | --- |
| CCCCC[C@H](O)/C=C/[C@H]1[C@H](O)CC(=O)[C@@H]1C/C=C\CCCC(=O)O | PTGER1 (Homo sapiens, UniProt P34995, E294A) | IP1 accumulation, agonist | AD293 | 1 h, EP1 E294A mutant | – | Emax | 13.4 ± 6.94% |
| N[C@@H](Cc1c[nH]c2ccccc12)C(=O)O | Transcription attenuation protein MtrB (mtrB, Geobacillus stearothermophilus, UniProt Q9X6J6) | isothermal titration calorimetry | – | 25 °C, one-site model | – | ΔH | -11.47 ± 0.05 kcal/mol |
| Nc1ncnc2c1ncn2[C@@H]1O[C@H](COP(=O)(O)OP(=O)(O)OP(=O)(O)O)[C@@H](O)[C@H]1O | T1, ssDNA, aptamer | ITC | – | – | – | Kd | 803 nM |
| CC(=O)c1c(C)c2cnc(Nc3ccc(N4CCN(CCCOc5ccc(CN6CCC(c7ccc8c(c7)CN(C7CCC(=O)NC7=O)C8=O)CC6)cc5)CC4)cn3)nc2n(C2CCCC2)c1=O (stereo not shown) | CDK6 (Homo sapiens, UniProt Q00534) | protein degradation, degrader, immunoblot | Jurkat | 4 h | – | Dmax | 78% |
| CNC(=O)[C@@]12C[C@@H]1[C@@H](n1cnc3c(NCCc4ccc(O)c(OC)c4)nc(C#Cc4ccc(Cl)s4)nc31)[C@H](O)[C@@H]2O | ADORA3 (Homo sapiens, UniProt P0DMS8) | β-arrestin 2 recruitment, agonist, NanoBiT | HEK293T | – | reference: reference agonist | Emax | 69.7% |
| [O-][S+]1CCCCS1 (stereo not shown) | SOD1 (Homo sapiens, UniProt P00441, G94A) | intact protein LC-MS | SOD1 G93A transgenic mice, whole blood | intravenous, 10 mg/kg, 1 h, mean of two mice | – | target engagement | 61.8% |
| c1ccc(-c2n[nH]cc2-c2ccnc3ccccc23)nc1 | SNF1 | kinase binding, competitor, MIB/MS competition, measured: SNF1 | Candida albicans cell lysate | 100 nM | reference: DMSO | log2 fold change | 0.946 |
| CCC[C@@H]1NC(=O)[C@H](CC2CCCCC2)NC(=O)[C@H](CC(C)C)NC(=O)[C@@H]2CCCN2C(=O)[C@@H](NC(=O)[C@H](CCCNC(=N)N)NC(=O)[C@H](CCCNC(=N)N)NC(C)=O)CSSC[C@@H](C(=O)N[C@@H](CCCNC(=N)N)C(=O)N[C@@H](CCCNC(=N)N)C(N)=O)NC(=O)[C@H](C(C)C)NC(=O)[C@@H]2CCCN2C(=O)[C@H](CC(=O)O)NC(=O)[C@H](Cc2ccc(O)cc2)NC(=O)[C@H](CO)NC1=O | GTPase KRas, GDP-bound (KRAS, Homo sapiens, UniProt P01116, G12D) | affinity selection mass spectrometry | – | mixture library 1, with: protein titration up to 5 µM | lower is stronger binding | lowest bound protein concentration | 2.5 µM |
| COc1ccc(-c2cc(=O)c3c(O)c(OC)c(O)c(OC)c3o2)cc1 | O-methyltransferase (Citrus reticulata) | C7 O-methylation, substrate | – | with: S-adenosylmethionine | – | Km | 33 ± 2.66 µM |
| N[C@H](CNC(=O)c1cc(Br)c(-c2ccccc2F)s1)C(=O)O | Glutamate receptor ionotropic, NMDA 1, with GluN2A (Grin1, Rattus norvegicus, UniProt P35439) | – | – | with: glutamate 300 µM | – | Hill slope | 1.48 |
| CC[C@@H]1[C@H](F)C(=O)N[C@@H]1COc1nccc2cc(C(N)=O)c(OC)cc12 | MAPK7 (Homo sapiens, UniProt Q13164) | ATP-site probe binding, ActivX profiling, measured: Erk5 | THP-1 cell lysate | 0.01 mM, Lys2 site | – | inhibition | -4.2% |
| CC[C@H](C)[C@@H]1NC(=O)[C@H](Cc2ccc(O)cc2)NC(=O)[C@@H](N)CSSC[C@@H](C(=O)N2CCC[C@H]2C(=O)N[C@@H](CC(C)C)C(=O)NCC(N)=O)NC(=O)[C@H](CC(N)=O)NC(=O)[C@H](CCC(N)=O)NC1=O | Oxytocin receptor (Rattus norvegicus, UniProt P70536) | – | rat lactating mammary cells | with: 1 µM compound | – | dissociation half-life | 16 min |
| CC(=O)NCCCC[C@H](NC(=O)CNC(=O)[C@H](CCCNC(=N)N)NC(C)=O)C(=O)Nc1ccc2c(C)cc(=O)oc2c1 | human Y225F/Y782F mutant enzyme | substrate, fluorogenic | – | – | – | Km | 56 ± 9 µM |
| Cc1ccc(C(=O)Nc2ccc3ccccc3c2)o1 | Scn3a (Rattus norvegicus, UniProt P08104) | ion current, whole-cell patch-clamp | – | 10 µM, rNaV1.3 | – | inhibition | 5.58% |
| CCCCCCOC(C)=O | uncharacterized protein | binding, competitor, fluorescence displacement | – | 20 µM, pH 7.4, with: 1-NPN 20 µM | reference: 1-NPN alone | relative fluorescence | 70.5% |

A few entries again:
| Compound | target | test | system | setting | how to read | endpoint | result |
| --- | --- | --- | --- | --- | --- | --- | --- |
| Nc1nc2c(ncn2[C@@H]2O[C@H](COP(=O)(O)O)[C@@H](O)[C@H]2O)c(=O)[nH]1 | GUK1 (Homo sapiens, UniProt Q16774, E72A) | enzyme activity, NADH-coupled | – | 125 µM | – | reaction rate | -0.404 s⁻¹ and 0.816 s⁻¹ and 0.0426 s⁻¹ |
| Cc1ccc(C(=O)Nc2ccc3ccccc3c2)o1 | Scn3a (Rattus norvegicus, UniProt P08104) | ion current, whole-cell patch-clamp | – | 10 µM, rNaV1.3 | – | inhibition | 5.58% |
| Nc1ncnc2c1ncn2[C@@H]1O[C@H](COP(=O)(O)OP(=O)(O)OP(=O)(O)O)[C@@H](O)[C@H]1O | P2X purinoceptor 7 (P2rx7, Rattus norvegicus, UniProt Q64663, I214A/Q143A/R125A) | ion current, agonist, two-electrode voltage clamp | Xenopus oocytes | 900 µM | – | normalized current | 0.878 and 0.862 and 0.885 |
| CCCCCCOC(C)=O | uncharacterized protein | binding, competitor, fluorescence displacement | – | 20 µM, pH 7.4, with: 1-NPN 20 µM | reference: 1-NPN alone | relative fluorescence | 70.5% |
| CC(=O)N[C@H](C(=O)N1C[C@H](O)C[C@H]1C(=O)NCc1ccc(-c2scnc2C)cc1)C(C)(C)SCCCCCCNC(=O)C[C@@H]1N=C(c2ccc(Cl)cc2)c2c(sc(C)c2C)-n2c(C)nnc21 | BRD4/VHL, BD1; with elongins B/C (Homo sapiens, UniProt O60885+P40337) | ternary complex binding, ITC | – | 25 °C, with: VHL-ElonginB-ElonginC titrated into compound:PROTAC:Brd4^BD1 complex | – | −TΔS | -6.57 ± 0.04 kcal/mol |
